Assay results gathered from unrelated publications.
Lines come from different studies, so protocols differ. ± marks the error that the study gave.

| SMILES | assay | test system | setting | scale | quantity | result |
| --- | --- | --- | --- | --- | --- | --- |
| CC[C@H](C)[C@H](NC(=O)[C@@H](N)CCCNC(=N)N)C(=O)N[C@H](C(=O)N1CCC[C@H]1C(=O)N[C@@H](C)C(N)=O)C(C)C | – | human, plasma | intravenous, 0.15 mg/kg, single dose, healthy volunteers | – | AUC(0-t) | 41 ng·h/mL |
| Cc1cc2c(C(C)C)c(O)c(O)c(C=O)c2c(O)c1-c1c(C)cc2c(C(C)C)c(O)c(O)c(C=O)c2c1O | cytochrome c release, ELISA | BALB/cByJ female mouse liver mitochondria | 30 min | reference: alamethicin maximal release | EC20 | > 10 µM |
| O=C1Cc2cc(CCN3CCN(c4nsc5ccccc45)CC3)c(Cl)cc2N1 | – | human liver mitochondrial preparation | 1 µM, 30 min, 0.5 mg/mL protein | – | percent metabolized | 0% |
| O=C1Nc2ccc(Cl)cc2[C@@](C#CC2CC2)(C(F)(F)F)O1 | – | RT-SHIV infected rhesus macaques, brain | dose not given | reference: uninfected macaques | brain concentration decrease | 86% |
| N=C(N)NCCC[C@H](NC(=O)[C@@H]1CCCN1C(=O)[C@H](Cc1c[nH]c2ccccc12)NC(=O)[C@H](CCCNC(=N)N)NC(=O)[C@H](Cc1ccccc1)NC(=O)[C@H](CC(=O)O)NC(=O)CNC(=O)[C@@H](N)CCCNC(=N)N)C(=O)O | Evans blue extravasation | Sprague-Dawley rat, BCCAO model | concentration not given, day 28 | reference: untreated BCCAO rats | BBB permeability | no effect |
| CC(C)Nc1nc(Cl)nc(NC(C)C)n1 | LC-MS/MS | herbicide solution | 2 h, 23 °C, with: 365 nm UV exposure | – | remaining amount | 47.2 ± 22.9% |
| CC(C)C[C@H](NC(=O)[C@H](CCC(=O)O)NC(=O)[C@H](CCC(=O)O)NC(=O)[C@H](CC(=O)O)NC(=O)[C@H](CCC(=O)O)NC(=O)[C@H](CCC(=O)O)NC(=O)[C@H](CCC(=O)O)NC(=O)[C@@H](N)CC(=O)O)C(=O)O | – | rat, CSF | subcutaneous, 11.0 mg/kg, 60 min | – | concentration | 18 ng/mL |
| CN[C@@](C)(C[18F])C(=O)O | – | SCID mouse MDA-MB-468 xenograft, spleen | 15 min, post injection | – | tissue uptake | 12 ± 1.7 %ID/g |
| O=c1[nH]c(Cc2ccccn2)nc2c1cnn2C1CCOCC1 | – | healthy men, extensive metabolizers, plasma | oral, 50 mg single dose, tablet, geometric mean | – | Cmax | 479 nM |
| [123I]c1cncc(OC[C@@H]2CCN2)c1 | SPECT | human, frontal lobe | intravenous bolus plus infusion, 7.6 mCi | reference: tissue over plasma | tissue/plasma ratio | 21.6 |
| CCCCCOc1ccc(-c2cc(-c3ccc(C(=O)N[C@H]4C[C@@H](O)[C@@H](O)NC(=O)[C@@H]5[C@@H](O)[C@@H](C)CN5C(=O)[C@H]([C@H](O)CC(N)=O)NC(=O)[C@H]([C@H](O)[C@@H](O)c5ccc(O)c(OS(=O)(=O)O)c5)NC(=O)[C@@H]5C[C@@H](O)CN5C(=O)[C@H]([C@@H](C)O)NC4=O)cc3)no2)cc1 | – | preterm neonates below 1000 g, plasma | intravenous, 15 mg/kg/day, repeated dosing, mean | – | Vdss | 1.2 L |
